Measured values collected from several papers.
Protocols differ between the studies behind these lines.
Organism: Mycobacterium tuberculosis

CO[C@H]1/C=C/O[C@@]2(C)Oc3c(C)c(O)c4c(O)c(c(/C=N/N5CCN(C)CC5)c(O)c4c3C2=O)NC(=O)/C(C)=C\C=C\[C@H](C)[C@H](O)[C@@H](C)[C@@H](O)[C@@H](C)[C@H](OC(C)=O)[C@@H]1C
MIC (H37Rv; low oxygen): 0.03 µM

CN1CCN(c2ccc(Nc3nccc(-c4ccnc(Cl)c4)n3)cc2C(F)(F)F)CC1
MIC (H37Ra ATCC 25177; median): 14 µg/mL

CC(C)C[C@H](NC(=O)[C@H](C)NC(=O)[C@H](CCC(=O)O)NC(=O)[C@@H](N)Cc1c[nH]cn1)C(=O)N[C@@H](CO)C(=O)N[C@@H](CC(=O)O)C(=O)N1CCC[C@H]1C(=O)N[C@@H](CC(=O)O)C(=O)O
MIC (H37Rv): > 100 µg/mL

CO[C@H]1/C=C/O[C@@]2(C)Oc3c(C)c(O)c4c(O)c(c(/C=N/N5CCN(C)CC5)c(O)c4c3C2=O)NC(=O)/C(C)=C\C=C\[C@H](C)[C@H](O)[C@@H](C)[C@@H](O)[C@@H](C)[C@H](OC(C)=O)[C@@H]1C
MIC (H37Rv wild type): 0.5 µg/mL

C=CCOC(=O)c1ccc(O)cc1
MIC (pabC deletion mutant; concentration not given, 12 days): 50 µM

[H]/N=C(/N)N[C@H]1[C@H](O)[C@@H](O)[C@H](O[C@@H]2O[C@@H](C)[C@](O)(C=O)[C@H]2O[C@@H]2O[C@@H](CO)[C@H](O)[C@@H](O)[C@@H]2NC)[C@@H](N/C(N)=N\[H])[C@@H]1O
MIC (H37Rv wild type): 1.25 µg/mL

CN1CCN(c2ccc(Nc3nccc(-c4ccccc4)n3)cc2C(F)(F)F)CC1
MIC (H37Rv auxotrophic strain): 10.3 µg/mL

C[C@H]1COC2(CCN(c3nc(=O)c4cc(C(F)(F)F)cc([N+](=O)[O-])c4s3)CC2)O1
MIC (H37Rv): < 0.39 µM

CC(C)C[C@H](NC(=O)[C@H](C)NC(=O)[C@H](CCC(=O)O)NC(=O)[C@@H](N)Cc1c[nH]cn1)C(=O)N[C@H](C(=O)N[C@@H](CC(=O)O)C(=O)N1CCC[C@H]1C(=O)N[C@@H](CC(=O)O)C(=O)O)[C@@H](C)O
MIC (H37Rv): > 100 µg/mL

COC(=O)c1c(NC(=O)c2c(F)c(F)c(F)c(F)c2F)sc2c1CCCCC2
MIC (MABA; H37Rv): 1.5 µM

CN1CCN(c2ccc(Nc3nccc(-c4cccc([N+](=O)[O-])c4)n3)cc2C(F)(F)F)CC1
MIC (H37Rv auxotroph): 50 µM

CC[C@@H](CO)NCCN[C@@H](CC)CO
MIC (Microplate Alamar Blue; H37Rv; 5 days, 37 °C): 1 µg/mL

COc1nc2ccc(Br)cc2cc1[C@@H](c1ccccc1)[C@@](O)(CCN(C)C)c1cccc2ccccc12
MIC (H37Rv wild type): 0.5 µg/mL

CCCCCCCCCCC[C@@H](C[C@@H]1OC(=O)[C@H]1CC1CCCCC1)OC(=O)[C@H](CC(C)C)NC=O
MIC (resazurin microtiter; H37Ra): 16 µM

CO[C@H]1/C=C/O[C@@]2(C)Oc3c(C)c(O)c4c(O)c(c(/C=N/N5CCN(C)CC5)c(O)c4c3C2=O)NC(=O)/C(C)=C\C=C\[C@H](C)[C@H](O)[C@@H](C)[C@@H](O)[C@@H](C)[C@H](OC(C)=O)[C@@H]1C
MIC (Alamar blue; 192): 0.152 µM

COc1ccc2cc1Oc1cc(ccc1OC)CCC(N[C@H]1CCCc3ccccc31)CCCC2 (stereo partly shown)
MIC (broth microdilution; H37Rv): 50 µg/mL

CCCCCCC#Cc1cncc(-c2nnc(SCc3ccc(Cl)cc3)n2C)c1
MIC (broth microdilution; H37Rv): 19 µM

NC(=S)NN=Cc1ccc(OC(=O)CN2C(=O)CSC2=O)c(Br)c1
MIC (Alamar blue; 192): 18.6 µM

O=c1[nH]c2nc(-c3ccccc3)sc2c(=O)n1O
MIC (highest tested 100 µM): 12.7 µM

CCCCCCC#Cc1cncc(-c2nnc(SCc3ccc([N+](=O)[O-])cc3)n2C)c1
MIC (broth microdilution; H37Rv): 37 µM

[H]/N=C(/N)N[C@H]1[C@H](O)[C@@H](O)[C@H](O[C@@H]2O[C@@H](C)[C@](O)(C=O)[C@H]2O[C@@H]2O[C@@H](CO)[C@H](O)[C@@H](O)[C@@H]2NC)[C@@H](N/C(N)=N\[H])[C@@H]1O
MIC (Alamar blue; 192): 0.43 µM

CN1CCN(c2ccc(Nc3nccc(-c4ccncc4)n3)cc2C(F)(F)F)CC1
MIC (H37Rv auxotrophic strain): > 50 µg/mL

c1ccc(-c2nc3cc(Nc4nccn4-c4cc(NC5CCCC5)ncn4)ccc3[nH]2)cc1
MIC: > 20 µM

COc1cccc(-c2ccnc(Nc3ccc(N4CCN(C)CC4)c(C(F)(F)F)c3)n2)c1
MIC (H37Rv auxotrophic strain): 13 µg/mL

CS(=O)(=O)Nc1ncn(-c2cc(F)c(COc3ccc(OS(=O)(=O)F)cc3)c(F)c2)n1
MIC (CDC1551, drug-susceptible, lineage 4): 0.02 µM

COC(=O)C=C1SC(=NN=Cc2ccc(OC(=O)CN3C(=O)CSC3=O)cc2)NC1=O
MIC (Alamar blue; 192): 69.2 µM

Cc1cn(C2CCN(Cc3ccnc(Oc4cccc(Cl)c4)c3)CC2)c(=O)[nH]c1=O
MIC (H37Rv; with: PAβN 15 µg/mL): 31.2 µg/mL

CN1CCN(c2ccc(Nc3nccc(-c4ccc([N+](=O)[O-])cc4)n3)cc2C(F)(F)F)CC1
MIC (H37Rv auxotroph): 25 µM

Oc1cc(Cl)ccc1Oc1ccc(Cl)cc1Cl
MIC (MTT; H37Rv): 12.5 µg/mL

O=C(CNc1ccccc1)NC1CCCCCC1
MIC (H37Rv mc2 6206): ≥ 64 µg/mL

Nc1ccc(S(=O)(=O)Nc2nccs2)cc1
MIC (H37Rv wild type): 200 µg/mL

NC(=S)NN=Cc1ccc(OC(=O)CN2C(=O)CSC2=O)cc1
MIC (Alamar blue; 192): 2.84 µM

CN1CCN(c2ccc(Nc3nccc(-c4cccc(Cl)c4)n3)cc2C(F)(F)F)CC1
MIC (H37Rv auxotrophic strain): 5.6 µg/mL

CC(=O)NC[C@H]1CN(c2ccc(N3CCOCC3)c(F)c2)C(=O)O1
MIC (H37Rv wild type): 1.25 µg/mL
